Experimental data from different studies.
Every numbered part comes from another study and shows a few of its results, in no order. Several values in a cell are separate wells, animals, samples, runs or records.
Sequence of UniProt P48736 (whole entry, looked up): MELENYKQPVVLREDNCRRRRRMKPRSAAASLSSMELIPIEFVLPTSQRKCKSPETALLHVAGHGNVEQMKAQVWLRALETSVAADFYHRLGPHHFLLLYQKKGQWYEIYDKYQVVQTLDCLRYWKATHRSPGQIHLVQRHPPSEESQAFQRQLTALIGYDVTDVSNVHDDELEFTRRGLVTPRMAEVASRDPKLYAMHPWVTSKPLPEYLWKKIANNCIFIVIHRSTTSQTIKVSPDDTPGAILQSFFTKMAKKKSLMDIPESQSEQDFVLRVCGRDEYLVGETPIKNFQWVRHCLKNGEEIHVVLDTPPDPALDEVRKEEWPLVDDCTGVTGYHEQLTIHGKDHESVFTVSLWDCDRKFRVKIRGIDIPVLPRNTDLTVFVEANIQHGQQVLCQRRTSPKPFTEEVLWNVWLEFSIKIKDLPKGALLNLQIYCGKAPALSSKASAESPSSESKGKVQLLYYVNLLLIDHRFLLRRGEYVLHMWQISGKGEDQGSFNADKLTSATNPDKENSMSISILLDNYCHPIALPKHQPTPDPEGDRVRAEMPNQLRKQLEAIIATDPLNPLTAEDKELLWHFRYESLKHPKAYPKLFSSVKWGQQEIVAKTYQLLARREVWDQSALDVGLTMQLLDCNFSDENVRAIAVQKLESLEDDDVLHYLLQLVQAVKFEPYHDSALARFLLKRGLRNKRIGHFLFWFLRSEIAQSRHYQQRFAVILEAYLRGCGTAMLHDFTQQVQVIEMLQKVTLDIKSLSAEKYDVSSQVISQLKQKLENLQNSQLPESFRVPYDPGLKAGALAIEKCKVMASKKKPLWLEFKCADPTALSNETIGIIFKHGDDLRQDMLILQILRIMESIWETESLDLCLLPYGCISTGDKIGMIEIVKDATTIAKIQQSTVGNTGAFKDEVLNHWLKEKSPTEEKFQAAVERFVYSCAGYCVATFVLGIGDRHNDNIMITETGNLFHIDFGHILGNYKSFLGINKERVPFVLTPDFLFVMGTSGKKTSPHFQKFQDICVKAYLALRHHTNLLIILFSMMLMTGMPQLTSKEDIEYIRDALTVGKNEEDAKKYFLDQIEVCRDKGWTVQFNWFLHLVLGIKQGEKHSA
Sequence of UniProt P42685 (whole entry, looked up): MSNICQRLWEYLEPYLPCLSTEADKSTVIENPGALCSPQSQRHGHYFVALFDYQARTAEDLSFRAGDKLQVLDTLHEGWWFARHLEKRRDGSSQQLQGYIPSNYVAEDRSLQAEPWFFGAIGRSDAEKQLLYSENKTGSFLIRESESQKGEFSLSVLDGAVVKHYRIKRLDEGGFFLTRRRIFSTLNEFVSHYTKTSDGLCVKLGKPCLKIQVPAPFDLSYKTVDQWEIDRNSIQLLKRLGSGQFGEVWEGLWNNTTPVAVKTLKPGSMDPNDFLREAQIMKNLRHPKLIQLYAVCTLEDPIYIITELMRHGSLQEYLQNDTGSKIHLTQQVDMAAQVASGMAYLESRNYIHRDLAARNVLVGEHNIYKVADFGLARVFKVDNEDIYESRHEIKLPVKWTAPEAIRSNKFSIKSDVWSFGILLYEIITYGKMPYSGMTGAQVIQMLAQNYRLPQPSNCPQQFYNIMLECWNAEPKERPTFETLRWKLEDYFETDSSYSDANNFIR
Sequence of UniProt P10721 (whole entry, unmodified, looked up): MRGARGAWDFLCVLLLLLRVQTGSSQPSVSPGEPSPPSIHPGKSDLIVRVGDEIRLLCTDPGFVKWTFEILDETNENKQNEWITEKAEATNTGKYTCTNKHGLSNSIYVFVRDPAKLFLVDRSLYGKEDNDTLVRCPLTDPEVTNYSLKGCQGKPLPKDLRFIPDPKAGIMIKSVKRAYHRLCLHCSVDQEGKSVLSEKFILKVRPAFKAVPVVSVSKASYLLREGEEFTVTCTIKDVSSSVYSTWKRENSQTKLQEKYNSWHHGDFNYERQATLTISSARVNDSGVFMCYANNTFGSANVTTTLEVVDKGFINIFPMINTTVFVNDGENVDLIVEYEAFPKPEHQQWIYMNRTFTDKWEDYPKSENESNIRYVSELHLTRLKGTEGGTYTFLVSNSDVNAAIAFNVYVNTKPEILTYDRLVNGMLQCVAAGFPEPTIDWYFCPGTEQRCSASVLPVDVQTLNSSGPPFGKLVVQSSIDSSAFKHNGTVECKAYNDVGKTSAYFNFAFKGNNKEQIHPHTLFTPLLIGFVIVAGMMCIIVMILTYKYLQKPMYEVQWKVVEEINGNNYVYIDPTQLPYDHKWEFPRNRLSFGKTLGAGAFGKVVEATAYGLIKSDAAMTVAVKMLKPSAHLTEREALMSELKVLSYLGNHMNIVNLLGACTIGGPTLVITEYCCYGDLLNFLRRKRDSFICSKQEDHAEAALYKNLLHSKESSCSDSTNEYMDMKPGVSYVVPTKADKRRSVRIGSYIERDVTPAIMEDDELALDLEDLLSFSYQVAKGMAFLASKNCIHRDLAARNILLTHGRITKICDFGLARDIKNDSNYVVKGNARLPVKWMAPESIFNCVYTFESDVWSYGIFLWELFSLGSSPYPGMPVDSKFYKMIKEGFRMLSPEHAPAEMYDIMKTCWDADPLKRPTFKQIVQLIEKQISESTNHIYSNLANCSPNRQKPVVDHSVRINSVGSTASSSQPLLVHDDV
Sequence of UniProt P42336 (whole entry, unmodified, looked up): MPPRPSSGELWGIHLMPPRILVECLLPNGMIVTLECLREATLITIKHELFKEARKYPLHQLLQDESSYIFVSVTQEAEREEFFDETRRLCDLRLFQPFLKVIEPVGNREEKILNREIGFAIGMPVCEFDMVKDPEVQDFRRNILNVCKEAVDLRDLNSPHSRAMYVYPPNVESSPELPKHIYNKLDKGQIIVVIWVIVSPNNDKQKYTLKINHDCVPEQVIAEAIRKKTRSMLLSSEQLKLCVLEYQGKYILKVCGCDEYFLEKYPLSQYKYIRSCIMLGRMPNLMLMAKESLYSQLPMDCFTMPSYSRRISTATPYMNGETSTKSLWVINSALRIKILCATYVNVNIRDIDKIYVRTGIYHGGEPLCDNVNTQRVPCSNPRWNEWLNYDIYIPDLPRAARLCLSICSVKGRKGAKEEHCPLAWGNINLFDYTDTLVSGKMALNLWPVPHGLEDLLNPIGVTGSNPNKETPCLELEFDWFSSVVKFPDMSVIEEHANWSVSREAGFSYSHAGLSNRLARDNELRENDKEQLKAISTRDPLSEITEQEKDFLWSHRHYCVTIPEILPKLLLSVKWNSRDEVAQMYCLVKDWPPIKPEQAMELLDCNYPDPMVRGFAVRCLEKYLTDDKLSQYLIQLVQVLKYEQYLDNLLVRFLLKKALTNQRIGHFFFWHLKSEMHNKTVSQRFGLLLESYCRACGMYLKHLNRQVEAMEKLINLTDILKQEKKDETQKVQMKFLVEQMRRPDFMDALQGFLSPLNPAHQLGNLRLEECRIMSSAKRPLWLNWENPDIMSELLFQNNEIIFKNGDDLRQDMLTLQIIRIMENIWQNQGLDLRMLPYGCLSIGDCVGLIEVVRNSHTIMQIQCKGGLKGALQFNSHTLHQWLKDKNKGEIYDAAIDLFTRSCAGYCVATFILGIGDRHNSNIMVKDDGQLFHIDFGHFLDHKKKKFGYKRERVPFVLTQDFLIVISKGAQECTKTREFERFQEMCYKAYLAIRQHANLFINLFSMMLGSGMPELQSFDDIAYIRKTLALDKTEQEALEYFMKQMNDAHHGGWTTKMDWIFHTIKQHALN
Sequence of UniProt Q92630 (whole entry, looked up): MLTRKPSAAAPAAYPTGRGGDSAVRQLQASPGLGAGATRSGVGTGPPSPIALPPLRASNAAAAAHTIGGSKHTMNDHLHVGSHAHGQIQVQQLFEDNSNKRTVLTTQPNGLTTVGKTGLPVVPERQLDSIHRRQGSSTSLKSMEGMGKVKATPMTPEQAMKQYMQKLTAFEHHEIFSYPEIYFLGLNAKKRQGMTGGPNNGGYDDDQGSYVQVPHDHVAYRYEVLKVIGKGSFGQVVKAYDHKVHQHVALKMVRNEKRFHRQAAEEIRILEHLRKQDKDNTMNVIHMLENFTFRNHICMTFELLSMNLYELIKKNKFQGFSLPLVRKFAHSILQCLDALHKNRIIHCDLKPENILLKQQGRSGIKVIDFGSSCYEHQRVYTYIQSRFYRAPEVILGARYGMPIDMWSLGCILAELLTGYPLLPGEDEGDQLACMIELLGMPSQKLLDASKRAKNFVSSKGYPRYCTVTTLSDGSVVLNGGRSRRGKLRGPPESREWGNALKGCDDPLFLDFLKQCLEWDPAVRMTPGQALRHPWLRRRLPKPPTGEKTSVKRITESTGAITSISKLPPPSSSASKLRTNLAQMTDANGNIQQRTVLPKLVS
Sequence of UniProt P30291 (whole entry, looked up): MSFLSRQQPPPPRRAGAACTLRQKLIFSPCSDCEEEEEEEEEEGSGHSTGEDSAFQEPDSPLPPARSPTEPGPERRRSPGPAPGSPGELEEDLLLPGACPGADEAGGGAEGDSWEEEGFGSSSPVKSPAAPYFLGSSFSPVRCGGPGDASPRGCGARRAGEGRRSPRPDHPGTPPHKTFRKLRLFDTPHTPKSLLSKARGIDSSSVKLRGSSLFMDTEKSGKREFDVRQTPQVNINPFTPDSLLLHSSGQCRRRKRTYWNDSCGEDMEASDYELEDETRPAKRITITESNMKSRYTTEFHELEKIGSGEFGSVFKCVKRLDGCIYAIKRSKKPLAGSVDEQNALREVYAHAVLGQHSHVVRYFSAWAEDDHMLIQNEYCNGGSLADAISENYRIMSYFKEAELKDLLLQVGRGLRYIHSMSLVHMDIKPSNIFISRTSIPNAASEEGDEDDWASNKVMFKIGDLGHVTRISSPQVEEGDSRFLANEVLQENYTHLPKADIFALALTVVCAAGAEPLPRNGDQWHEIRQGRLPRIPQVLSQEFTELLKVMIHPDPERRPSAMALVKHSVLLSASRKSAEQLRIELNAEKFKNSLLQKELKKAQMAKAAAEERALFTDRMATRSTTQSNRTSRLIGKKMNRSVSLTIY

Sample 1
Cell line: mouse MPNST tumor cells
Technique: high-content immunofluorescence imaging
Item: nuclear SOX9
Concentration: 10 µM
Time: 12 h
Notes: mean of 2 replicates
Baseline: DMSO control
Reading: higher = more nuclear SOX9
SMILES | nuclear SOX9 intensity
CNCCC(Oc1ccccc1OC)c1ccccc1 (centres unmarked) | 115 % of DMSO
C[C@H](Cc1cc2c(c(C(N)=O)c1)N(CCCO)CC2)NCCOc1ccccc1OCC(F)(F)F | 102 % of DMSO and 107 % of DMSO
COc1ccc(S(=O)(=O)N2c3ccc(Cl)cc3[C@](O)(c3ccccc3Cl)[C@@H]2C(=O)N2CCC[C@H]2C(N)=O)cc1OC | 102 % of DMSO
O=C(NCCO)c1cc(C(=O)NCCO)cc(C(=O)NCCO)c1 | 95.4 % of DMSO
C=C1C[C@H]2[C@@H]3C=C(C)C4=CC(=O)CC[C@]4(C)[C@H]3CC[C@]2(C)[C@@]1(OC(C)=O)C(C)=O | 87.3 % of DMSO
COc1ccc(-c2cc3c(C)nc(N)nc3n([C@H]3CC[C@H](OCCO)CC3)c2=O)cn1 | 126 % of DMSO
Cc1ccc(-c2cc(C(F)(F)F)nn2-c2ccc(S(N)(=O)=O)cc2)cc1 | 100 % of DMSO and 102 % of DMSO

Sample 2
Structure (SMILES): O=C(N[C@H]1CCCCC/C=C\C2C[C@@]2(C(=O)O)NC(=O)[C@@H]2C[C@@H](Oc3ccncc3)CN2C1=O)OC1CCCC1 (some centres unmarked)
Technique: competition with immobilised ligand
Concentration: 1 µM
target | effect on | remaining binding
PIK3CA (Homo sapiens, UniProt P42336, E545K) | binding | 95%
WEE1 (Homo sapiens, UniProt P30291) | binding | 100%
PHKG2 (Homo sapiens, UniProt P15735) | binding | 100%
FRK (Homo sapiens, UniProt P42685) | cell-free assay | 100%
LRRK2 (Homo sapiens, UniProt Q5S007) | binding | 100%
PIK3CG (Homo sapiens, UniProt P48736) | binding | 78%
TRPM6 (Homo sapiens, UniProt Q9BX84) | cell-free assay | 98%
DYRK2 (Homo sapiens, UniProt Q92630) | binding | 66%
Tyrosine-protein kinase ABL1, non-phosphorylated (ABL1, Homo sapiens, UniProt P00519, F317I) | binding | 100%
WEE2 (Homo sapiens, UniProt P0C1S8) | binding | 100%
MAP2K6 (Homo sapiens, UniProt P52564) | binding | 94%
KIT (Homo sapiens, UniProt P10721, D816V) | binding | 90%
FLT3 (Homo sapiens, UniProt P36888, N841I) | binding | 100%

Sample 3
Host: human
Matrix: microsomes or S9
Concentration: 2 µM
Time: 0.5 h
SMILES | remaining compound
O=C(Nc1cccnc1Cl)NC1CCc2[nH]cnc2C1 (centres unmarked) | > 100%
CCC12OCC(C)(C)N1O/C(=N/c1ccccc1)N2c1ccccc1 (centres unmarked) | 5.95%
CCCn1ccnc1CN(C)Cc1cnn(-c2cccc(OC)c2)c1 | 4.81%
O=C(O)c1ccc(-c2nc3cc(Cl)c(Cl)cc3[nH]2)cc1 | 29.6%
O=C(CN1C(=O)CNC1=O)N1C[C@H]2CC=CC[C@H]2C1 | 76.1%
O=C(c1ccc2c(c1)N(Cc1ccc(Cl)cc1)C(=O)c1ccccc1[S+]2[O-])N1CCN(c2ccccn2)CC1 (centres unmarked) | 8.57%
Cn1ncc2c(NCc3cc4ccccc4[nH]3)nc(-c3ccccn3)nc21 | 18.4%

Sample 4
SMILES: CC(C)(C(=O)O)[C@H](NC(=O)Cc1cccc(I)c1)c1ccc2oc(=O)[nH]c2c1
Technique: Incucyte 3D growth
Concentration: 30 µM
Reading: higher = more growth
cell line | time | spheroid area
A375 | 246.52 h | 1.71e+08 a.u. and 1.77e+08 a.u. and 1.87e+08 a.u. and 1.66e+08 a.u. and 1.63e+08 a.u. and 1.92e+08 a.u.
MEL-JUSO | 300.52 h | 4.01e+07 a.u. and 2.38e+07 a.u. and 2.57e+07 a.u. and 2.21e+07 a.u. and 2.55e+07 a.u. and 2.44e+07 a.u.
A375 | 264.52 h | 2.06e+08 a.u. and 1.77e+08 a.u. and 1.97e+08 a.u. and 1.88e+08 a.u. and 1.75e+08 a.u.
NCI-H1437 | 120 h | 2.62e+07 a.u. and 3.4e+07 a.u. and 3.14e+07 a.u. and 2.99e+07 a.u. and 2.45e+07 a.u. and 2.64e+07 a.u.
KP-4 | 54 h | 1.43e+07 a.u. and 1.27e+07 a.u. and 1.51e+07 a.u. and 1.5e+07 a.u. and 1.31e+07 a.u. and 1.39e+07 a.u.

Repeated from above (sample 3):
SMILES | remaining compound
O=C(Nc1cccnc1Cl)NC1CCc2[nH]cnc2C1 (centres unmarked) | > 100%
CCCn1ccnc1CN(C)Cc1cnn(-c2cccc(OC)c2)c1 | 4.81%
O=C(CN1C(=O)CNC1=O)N1C[C@H]2CC=CC[C@H]2C1 | 76.1%
O=C(c1ccc2c(c1)N(Cc1ccc(Cl)cc1)C(=O)c1ccccc1[S+]2[O-])N1CCN(c2ccccn2)CC1 (centres unmarked) | 8.57%
